# Measurements gathered from unrelated publications.
# Compare with care: the assays were run in different laboratories. Several values in a cell are separate wells, animals, samples, runs or records. ± gives the spread as reported.
Compound,test,system,setting,clearance
CC[C@H](C)[C@H](NC(=O)[C@H](CC(C)C)NC(=O)[C@H](Cc1c[nH]c2ccccc12)NC(=O)[C@H](C)NC(=O)[C@@H](NC(=O)[C@H](Cc1ccccc1)NC(=O)[C@H](CC(=O)O)NC(=O)[C@H](CCCNC(=N)N)NC(=O)[C@H](C)NC(=O)[C@H](C)NC(=O)[C@H](CC(C)C)NC(=O)[C@H](C)NC(=O)[C@H](CC(=O)O)NC(=O)[C@H](CC(C)C)NC(=O)[C@@H](NC(=O)[C@@H](NC(=O)[C@H](C)NC(=O)[C@H](CC(C)C)NC(=O)[C@H](CCC(=O)O)NC(=O)[C@H](CO)NC(=O)[C@H](CO)NC(=O)[C@H](Cc1ccccc1)NC(=O)[C@@H](NC(=O)CNC(=O)[C@H](CCC(=O)O)NC(=O)CNC(=O)[C@@H](N)Cc1cnc[nH]1)[C@@H](C)O)[C@@H](C)O)[C@@H](C)CC)[C@@H](C)CC)C(=O)N[C@@H](C)C(=O)N[C@H](C(=O)N[C@@H](CCCCN)C(=O)N[C@H](C(=O)N[C@H](C(=O)N[C@@H](CC(=O)O)C(=O)N[C@@H](CCCCN)C(=O)N[C@@H](CCCCN)C(=O)N[C@@H](CCCCN)C(=O)N[C@@H](CCCCN)C(=O)N[C@@H](CCCCN)C(=O)N[C@@H](CCCCN)C(N)=O)[C@@H](C)O)[C@@H](C)CC)[C@@H](C)O,,"healthy human subjects, plasma","intravenous infusion, 1 mg glepaglutide",95.3 mL/min
CN[C@H]1CN(c2ccc3c(=O)c(C(=O)O)cn(-c4nccs4)c3n2)C[C@@H]1OC,,"human patients, plasma","intravenous, 9 to 50 mg/m^2 twice weekly, day 4, cycle 1, mean, noncompartmental",71.5 mL/min
CC(=O)O[C@H]1C(=O)[C@@]2(C)[C@H]([C@H](OC(=O)c3ccccc3)[C@]3(O)C[C@H](OC(=O)[C@H](O)[C@@H](NC(=O)c4ccccc4)c4ccccc4)C(C)=C1C3(C)C)[C@]1(OC(C)=O)CO[C@@H]1C[C@@H]2O,noncompartmental analysis,"human, plasma","intravenous, 80 mg/m^2, day 8, DL3 geometric mean, added: onalespib 200 mg/m^2",14.5 ± 4.59 L/h/m²
NS(=O)(=O)OC[C@@H]1C[C@@H](n2ccc3c(N[C@H]4CCc5ccccc54)ncnc32)C[C@@H]1O,,human,"intravenous, 15 mg/m^2 single dose, day 8, added: itraconazole",442 mL/min
Cc1ccc(NC(=O)c2ccc(CN3CCNCC3)cc2)cc1Nc1nccc(-c2cccnc2)n1,,human patients,"oral, 400 mg/day of imatinib, day 14 of cycle 1, added: IL-2 6 MIU/day days 10-14",248 mL/min
C/C=C1\NC(=O)[C@H]2CSSCC/C=C/[C@H](CC(=O)N[C@H](C(C)C)C(=O)N2)OC(=O)[C@H](C(C)C)NC1=O,,"human, plasma",intravenous,86.7 mL/min
O=C(/C=C/c1cccc(S(=O)(=O)Nc2ccccc2)c1)NO,,"human severe liver dysfunction, plasma","intravenous, 400 mg/m^2, 30 min infusion, cycle 1 day -7",444 mL/min/m²
CC#CC(=O)N1CCC[C@H]1c1nc(-c2ccc(C(=O)Nc3ccccn3)cc2)c2c(N)nccn12,,"human, normal hepatic function","oral, 50 mg",4110 mL/min
NC(=S)NN=Cc1ncccc1N,,"human, plasma","intravenous, 75 mg, steady state",420 ± 66.8 mL/min
CNCc1ccc(-c2[nH]c3cc(F)cc4c3c2CCNC4=O)cc1,,"human cancer patients, plasma","intravenous, 4 mg/m2, day 4, added: temozolomide 100",450 mL/min
Cc1cc(F)ccc1-c1nc(NC(CO)CO)nc2c1ccc(=O)n2-c1c(F)cccc1F,population PK model,"human, severe trauma, at risk for ARDS, plasma","intravenous infusion, typical patient",600 mL/min and 598 mL/min
CC(C)C[C@H](NC(=O)[C@H](CCc1ccccc1)NC(=O)CN1CCOCC1)C(=O)N[C@@H](Cc1ccccc1)C(=O)N[C@@H](CC(C)C)C(=O)[C@@]1(C)CO1,,"human patients, plasma","intravenous infusion 10 min, 27 mg/m^2, day 16 of cycle 1, KRd regimen",1650 ± 268 mL/min

# Repeated from above:
Compound,test,system,setting,clearance
O=C(/C=C/c1cccc(S(=O)(=O)Nc2ccccc2)c1)NO,,"human severe liver dysfunction, plasma","intravenous, 400 mg/m^2, 30 min infusion, cycle 1 day -7",444 mL/min/m²
NC(=S)NN=Cc1ncccc1N,,"human, plasma","intravenous, 75 mg, steady state",420 ± 66.8 mL/min
